Experimental data of several laboratories.
Each line is one published result; not all experiments were run side by side.
Target: Cyclin-dependent kinase 19 (CDK19, Homo sapiens, UniProt Q9BWU1)
UniProt Q9BWU1, sequence (whole entry, looked up): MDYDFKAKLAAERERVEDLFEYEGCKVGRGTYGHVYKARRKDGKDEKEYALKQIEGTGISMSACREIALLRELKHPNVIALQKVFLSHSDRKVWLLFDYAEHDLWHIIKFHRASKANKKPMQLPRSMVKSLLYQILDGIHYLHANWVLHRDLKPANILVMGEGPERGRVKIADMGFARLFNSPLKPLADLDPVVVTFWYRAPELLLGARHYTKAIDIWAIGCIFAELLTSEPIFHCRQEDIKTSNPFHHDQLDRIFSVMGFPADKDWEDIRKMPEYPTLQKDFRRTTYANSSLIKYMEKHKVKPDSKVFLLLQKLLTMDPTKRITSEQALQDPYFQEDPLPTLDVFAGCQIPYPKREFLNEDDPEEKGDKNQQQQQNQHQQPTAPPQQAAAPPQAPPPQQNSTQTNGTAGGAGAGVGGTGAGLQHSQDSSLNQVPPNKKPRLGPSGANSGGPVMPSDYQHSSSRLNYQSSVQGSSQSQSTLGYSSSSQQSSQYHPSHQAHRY

SMILES = C=CC(=O)N1CCC(C(=O)NCC(=O)N2CCN(c3nc(-c4cnc(N)nc4C(F)F)nc(N4CCOCC4)n3)CC2)CC1; method = KINOMEscan; tested at = 1 µM; remaining binding = 99%
SMILES = N#Cc1ccc(NC(=O)Nc2ccccc2)cc1; method = KINOMEscan competition binding; tested at = 25 µM; reference = DMSO control; direction = lower is stronger binding; remaining binding = 80%
SMILES = N#Cc1ccccc1CSc1nnc2c(n1)[nH]c1ccccc12; method = KINOMEscan; tested at = 10 µM; reference = DMSO control; remaining binding = 100%
SMILES = C[C@]1(O)CCCN(c2nc(Nc3ccc(S(=O)(=O)N[C@H]4CC[C@H](CN5CCN(c6ccc(C7CCC(=O)NC7=O)cc6F)CC5)CC4)cc3F)ncc2C(F)(F)F)C1 (some centres unmarked); method = KINOMEscan; tested at = 1 µM; remaining binding = 100%
SMILES = Cc1cnc(Nc2ccc(C(=O)N3CCC(N4CCCC4)CC3)cc2)nc1-c1cc2ccccc2s1; mode = binding; method = KINOMEscan competition binding; tested at = 1 µM; reference = DMSO control; remaining binding = 100%
SMILES = Cc1cc([C@@H](C)Nc2ccccc2C(=O)O)c2nc(N3CCC(F)(F)CC3)c(C#N)c(=O)n2c1; method = KINOMEscan; tested at = 10 µM; reference = control; remaining binding = 79%
SMILES = O=C(NCCCN1CCOCC1)c1ccc(Nc2ncc(Cl)c(-c3ccc(Cl)s3)n2)cc1; mode = binding; method = KINOMEscan competition binding; tested at = 1 µM; reference = DMSO control; remaining binding = 100%
SMILES = FC(F)(F)Oc1cccc(-c2cnc3ccc(-c4ccncc4)nn23)c1; method = KINOMEscan competition binding; tested at = 5 µM; remaining binding = 5.5%
SMILES = O=C(NCC1CCOCC1)c1n[nH]cc1NC(=O)c1c(F)cccc1F; method = scanMAX; tested at = 1 µM; reference = untreated; remaining binding = 100%
SMILES = CCN1CCN(Cc2ccc(C(=O)Nc3ccc(C)c(Oc4ccc5c(c4)CC(=O)N5)c3)cc2C(F)(F)F)CC1; method = KINOMEscan; tested at = 1 µM; remaining binding = 93%
SMILES = COc1cnc(Nc2cccc(S(N)(=O)=O)c2)nc1N1CCN(c2ccccc2)CC1; method = KINOMEscan; tested at = 1 µM; remaining binding = 100%
SMILES = Nc1ncc2c(n1)-c1c([nH]c3ccc(C#CC4CC4)cc13)CCCC2; method = scanMAX; tested at = 1 µM; remaining binding = 85%
SMILES = O=C(NCCCN1CCOCC1)c1ccc(Nc2nccc(-c3cc4ccccc4s3)n2)cc1; mode = binding; method = KINOMEscan competition binding; tested at = 1 µM; reference = DMSO control; remaining binding = 96%
SMILES = CNS(=O)(=O)c1ccc(Nc2ncc(C(F)(F)F)c(N3CCC[C@](C)(O)C3)n2)c(C)c1; method = KINOMEscan; tested at = 1 µM; remaining binding = 88%

Excerpt of the above:
SMILES = Nc1ncc2c(n1)-c1c([nH]c3ccc(C#CC4CC4)cc13)CCCC2; method = scanMAX; tested at = 1 µM; remaining binding = 85%
SMILES = C[C@]1(O)CCCN(c2nc(Nc3ccc(S(=O)(=O)N[C@H]4CC[C@H](CN5CCN(c6ccc(C7CCC(=O)NC7=O)cc6F)CC5)CC4)cc3F)ncc2C(F)(F)F)C1 (some centres unmarked); method = KINOMEscan; tested at = 1 µM; remaining binding = 100%
